Results from different studies.
Lines come from different studies, so protocols differ. Numbers after ± are the reported error.
Target: Mitogen-activated protein kinase 8 (MAPK8, Homo sapiens, UniProt P45983)
Sequence of UniProt P45983 (whole entry, looked up): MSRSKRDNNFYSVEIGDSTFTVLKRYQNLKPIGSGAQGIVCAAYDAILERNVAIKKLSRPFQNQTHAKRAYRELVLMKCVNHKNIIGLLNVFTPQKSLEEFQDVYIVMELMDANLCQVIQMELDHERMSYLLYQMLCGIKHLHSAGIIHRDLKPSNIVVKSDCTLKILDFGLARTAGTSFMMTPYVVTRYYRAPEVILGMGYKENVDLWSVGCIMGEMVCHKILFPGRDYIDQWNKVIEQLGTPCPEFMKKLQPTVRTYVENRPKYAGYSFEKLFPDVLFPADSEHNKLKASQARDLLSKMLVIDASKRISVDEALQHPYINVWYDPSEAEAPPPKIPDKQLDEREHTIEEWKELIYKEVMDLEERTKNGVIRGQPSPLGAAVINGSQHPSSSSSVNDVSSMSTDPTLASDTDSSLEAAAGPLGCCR

| Compound | assay | test system | conditions | measurement | result |
| --- | --- | --- | --- | --- | --- |
| COC(=O)C1(C)C=C(C(=O)OC(C)(C)C)C(=O)CC1 (stereo not drawn) | ligand displacement, FP |  |  | Ki | 7400 nM |
| CC(C)CN(CC(=O)NCCCCCCNC(=O)c1ccc(-c2n[nH]c3ccccc23)cc1)C(=O)C(C)NC(=O)C1COc2ccccc2C1 (stereo not drawn) | enzyme activity, inhibitor |  |  | IC50 | 154 nM |
| C=C1CC2(C(=O)OC)C=C(C(=O)OC(C)(C)C)C(=O)C1C2 (stereo not drawn) | ligand displacement, FP |  |  | Ki | 1000 nM |
| CC[C@H](C)[C@H](NC(=O)[C@H](CCCCN)NC(=O)[C@H](CC(C)C)NC(=O)[C@H](CCCCN)NC(=O)[C@H](Cc1c[nH]cn1)NC(=O)[C@H](CCC(=O)O)NC(=O)[C@H](CCCCN)NC(=O)[C@H](CCCCN)NC(=O)[C@H](CCCNC(=N)N)NC(=O)[C@@H](NC(=O)[C@H](CCC(N)=O)NC(=O)[C@H](CCCCN)NC(=O)[C@H](C)NC(=O)[C@@H](N)Cc1ccc(O)cc1)C(C)C)C(=O)N[C@H](C(=O)N1CCC[C@H]1C(=O)O)[C@@H](C)O | kinase activity, inhibitor, SOX fluorogenic |  | pH 7.5, added: ATP 1 mM | IC50 | > 100000 nM |
| CC(C)C[C@H](NC(=O)[C@H](CC(N)=O)NC(=O)[C@H](CC(C)C)NC(=O)[C@@H](NC(=O)[C@@H](NC(=O)[C@@H]1CCCN1C(=O)[C@H](CCCNC(=N)N)NC(=O)[C@H](CCCCN)NC(=O)[C@@H]1CCCN1C(=O)[C@H](CCCNC(=N)N)NC(=O)[C@@H]1CCCN1C(=O)[C@@H]1CCCN1C(=O)[C@H](CCCNC(=N)N)NC(=O)[C@H](CCCNC(=N)N)NC(=O)[C@H](CCCNC(=N)N)NC(=O)[C@H](CCC(N)=O)NC(=O)[C@H](CCCNC(=N)N)NC(=O)[C@H](CCCNC(=N)N)NC(=O)[C@H](CCCCN)NC(=O)[C@H](CCCCN)NC(=O)[C@H](CCCNC(=N)N)NC(=O)CN)[C@@H](C)O)[C@@H](C)O)C(=O)N[C@@H](Cc1ccccc1)C(=O)N1CCC[C@H]1C(=O)N[C@@H](CCC(N)=O)C(=O)N[C@H](C(=O)N1CCC[C@H]1C(=O)N[C@@H](CCCNC(=N)N)C(=O)N[C@@H](CO)C(=O)N[C@@H](CCC(N)=O)C(=O)N[C@@H](CC(=O)O)C(=O)N[C@H](C(N)=O)[C@@H](C)O)C(C)C | enzyme activity, inhibitor |  |  | IC50 | 330 ± 10 nM |
| COC(=O)[C@]1(Cc2ccccc2)C=C(C(=O)OC(C)(C)C)C(=O)CC1 | ligand displacement, FP |  |  | Ki | 1200 nM |
| CC(C)C[C@@H](NC(=O)[C@@H](Cc1ccccc1)NC(=O)[C@H]1CCCN1C(=O)[C@@H](CCC(N)=O)NC(=O)[C@H](NC(=O)[C@H]1CCCN1C(=O)[C@@H](CCCNC(=N)N)NC(=O)[C@@H](CO)NC(=O)[C@@H](CCC(N)=O)NC(=O)[C@@H](CC(=O)O)NC(=O)[C@H](N)[C@H](C)O)C(C)C)C(=O)N[C@H](CC(N)=O)C(=O)N[C@H](CC(C)C)C(=O)N[C@@H](C(=O)N[C@@H](C(=O)N1CCC[C@@H]1C(=O)N[C@H](CCCNC(=N)N)C(=O)N[C@H](CCCCN)C(=O)N1CCC[C@@H]1C(=O)N[C@H](CCCNC(=N)N)C(=O)N1CCC[C@@H]1C(=O)N1CCC[C@@H]1C(=O)N[C@H](CCCNC(=N)N)C(=O)N[C@H](CCCNC(=N)N)C(=O)N[C@H](CCCNC(=N)N)C(=O)N[C@H](CCC(N)=O)C(=O)N[C@H](CCCNC(=N)N)C(=O)N[C@H](CCCNC(=N)N)C(=O)N[C@H](CCCCN)C(=O)N[C@H](CCCCN)C(=O)N[C@H](CCCNC(=N)N)C(=O)NCC(N)=O)[C@H](C)O)[C@H](C)O | kinase activity, inhibitor, radiometric |  | pH 7.5, 30 °C, added: GST-c-Jun substrate | IC50 | 288000 ± 24000 nM |
| Cc1ccc(NC(=O)Nc2cnn(-c3cccc(C(=O)Nc4ccnc(C)c4)c3)c2)cc1 | enzyme activity, inhibitor, TR-FRET |  |  | IC50 | > 10000 nM |
| CC(C)C[C@H](NC(=O)[C@H](CC(N)=O)NC(=O)[C@H](CC(C)C)NC(=O)[C@@H](NC(=O)[C@@H](NC(=O)[C@@H]1CCCN1C(=O)[C@H](CCCNC(=N)N)NC(=O)[C@H](CCCCN)NC(=O)[C@@H]1CCCN1)[C@@H](C)O)[C@@H](C)O)C(=O)N[C@@H](Cc1ccccc1)C(=O)NCCCCCC(=O)N[C@@H](CCCNC(=N)N)C(=O)N[C@@H](CCCNC(=N)N)C(=O)N[C@@H](CCCNC(=N)N)C(=O)N[C@@H](CCC(N)=O)C(=O)N[C@@H](CCCNC(=N)N)C(=O)N[C@@H](CCCNC(=N)N)C(=O)N[C@@H](CCCCN)C(=O)N[C@@H](CCCCN)C(=O)N[C@@H](CCCNC(=N)N)C(=O)NCC(N)=O | kinase activity, inhibitor, radiometric |  | pH 7.5, 30 °C, added: GST-c-Jun substrate | IC50 | 1160 ± 50 nM |
| Cc1cc(NC(=O)c2cccc(N)c2)ccc1Nc1nccc(-c2cccnc2)n1 | target engagement, NanoBRET | HEK293 | 2 h, added: tracer K-5 | EC50 | 417 ± 38 nM |
| Cc1cc(NC(=O)c2cccc(-n3cc(NC(=O)Nc4ccc(Cl)cc4)cn3)c2)ccn1 | enzyme activity, inhibitor, TR-FRET |  |  | IC50 | 1510 nM |
| CC(C)C[C@H](NC(=O)[C@H](CC(N)=O)NC(=O)[C@H](CC(C)C)NC(=O)[C@@H](NC(=O)[C@@H](NC(=O)[C@@H]1CCCN1C(=O)[C@H](CCCNC(=N)N)NC(=O)[C@H](CCCCN)NC(=O)[C@@H]1CCCN1)[C@@H](C)O)[C@@H](C)O)C(=O)N[C@@H](Cc1ccccc1)C(=O)NCCCCCC(=O)N[C@@H](CCCNC(=N)N)C(=O)N[C@@H](CCCNC(=N)N)C(=O)N[C@@H](CCCNC(=N)N)C(=O)N[C@@H](CCCNC(=N)N)C(=O)N[C@@H](CCCNC(=N)N)C(=O)N[C@@H](CCCNC(=N)N)C(=O)N[C@@H](CCCNC(=N)N)C(=O)N[C@@H](CCCNC(=N)N)C(=O)N[C@@H](CCCNC(=N)N)C(N)=O | kinase activity, inhibitor, radiometric |  | pH 7.5, 30 °C, added: GST-c-Jun substrate | IC50 | 1100 ± 130 nM |

For quick reference, copied from above:
| Compound | assay | test system | conditions | measurement | result |
| --- | --- | --- | --- | --- | --- |
| Cc1cc(NC(=O)c2cccc(N)c2)ccc1Nc1nccc(-c2cccnc2)n1 | target engagement, NanoBRET | HEK293 | 2 h, added: tracer K-5 | EC50 | 417 ± 38 nM |
| CC(C)CN(CC(=O)NCCCCCCNC(=O)c1ccc(-c2n[nH]c3ccccc23)cc1)C(=O)C(C)NC(=O)C1COc2ccccc2C1 (stereo not drawn) | enzyme activity, inhibitor |  |  | IC50 | 154 nM |
